Published values collected from several papers.
Every numbered part comes from another study and shows a few of its results, in no order.

Study 1
Target: Interferon regulatory factor 7, full length, phosphomimetic (IRF7, Homo sapiens, UniProt Q92985, residues 1-503, S101K/S471D/S472D/S475D/S476D/S477D/S483D/S484D/S487D)
Method: protein-binding microarray
Form: double-stranded DNA, one strand shown
Sample: in vitro
Concentration: 250 nM
Setting: 60-bp whole probe
Added: salmon DNA 0.4 mg/ml
Reference: random background probes
Direction: higher = stronger binding
Shared flanks, not repeated: GCCTAGCAC … GTCTTGATTCGCTTGACGCTGCTG
Construct (chain): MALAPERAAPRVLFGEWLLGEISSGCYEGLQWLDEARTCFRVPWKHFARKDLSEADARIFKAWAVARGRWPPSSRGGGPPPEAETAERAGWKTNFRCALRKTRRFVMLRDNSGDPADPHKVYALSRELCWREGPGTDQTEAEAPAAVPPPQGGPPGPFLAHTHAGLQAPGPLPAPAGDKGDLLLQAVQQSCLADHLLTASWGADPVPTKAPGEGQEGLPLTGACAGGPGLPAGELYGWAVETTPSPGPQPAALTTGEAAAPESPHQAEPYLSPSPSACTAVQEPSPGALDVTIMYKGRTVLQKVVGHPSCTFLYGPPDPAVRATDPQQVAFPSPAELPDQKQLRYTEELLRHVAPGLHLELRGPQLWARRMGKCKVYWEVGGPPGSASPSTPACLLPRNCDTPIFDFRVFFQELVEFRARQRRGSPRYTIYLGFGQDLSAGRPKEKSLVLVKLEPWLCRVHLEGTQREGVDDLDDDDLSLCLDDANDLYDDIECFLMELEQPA
| Strand | log fluorescence [z-score] |
| --- | --- |
| TTAGATATCAGTCTCGATTTGTGCTAG | 5.33 |
| TAGTATATACACTTATGACTGTGCTAG | -0.0308 |
| GACGGACTGCGTCTCCTGACGTGCTAG | -0.563 |
| GACGGACTGGGGTATCGGTACGTGCTA | -0.63 |
| TTAGGTATCCATATCCTTTAGTGCTAG | 0.553 |
| GTTTTTTAAAGTTTCAGTGAGTGCTAG | 1.71 |
| TTTTTTTTTTTTTTACTTCGGTGCTAG | 0.713 |
| AACGGTTTCCTTATCCTGACGTGCTAG | 3.09 |
| GACGAACTGTGTCTCGAGACGTGCTAG | -0.0552 |
| GACGAACTGACTCTCGAGACGTGCTAG | -0.0787 |
| TTTGCTCTGTGCATAGTTCTGTGCTAG | -0.527 |
| TCAGTGCTCCTTTTAATACTGTGCTAG | -0.00451 |
| TTAGATATCGGGTACCGATTAGTGCTA | 0.227 |
| GACGGTATCGATTATCGGGACGTGCTA | 0.938 |
| TAAGAACTGAGACTGGATTAGTGCTAG | 0.116 |
| GACGAACTGGGGAGTGGAGACGTGCTA | -0.494 |
| TTAGGACTGGACCATCGGTTAGTGCTA | -0.36 |
| TCATGTTTGGTCCTGAAACTGTGCTAG | 0.457 |
| TTAGGACTGGGTCACGGTTAGTGCTAG | 0.522 |
| CGTCATTTCACAGTTAACCAGTGCTAG | 0.693 |
| GACGGTATCCTTTTCCTGAGGTGCTAG | 0.982 |
| TTAGGACTAGACTATCGGTTAGTGCTA | 0.0463 |
| TTAGGTATCCTACTGCTTTAGTGCTAG | -0.0995 |
| TAGAGGGAGTAAAGGAAAGAGTGCTAG | -0.607 |
| GACGGTATCCTATTGCTGACGTGCTAG | 0.644 |

Study 2
Target: PABPC1L2, full length, GST fusion (mouse, UniProt A0ABA7IW68)
Method: RNAcompete
Form: RNA
Sample: in vitro
Concentration: 20 nM
Setting: 7-mer, probes averaged, single round
Reference: mean of 7-mers
Direction: higher = stronger binding
Target sequence (chain): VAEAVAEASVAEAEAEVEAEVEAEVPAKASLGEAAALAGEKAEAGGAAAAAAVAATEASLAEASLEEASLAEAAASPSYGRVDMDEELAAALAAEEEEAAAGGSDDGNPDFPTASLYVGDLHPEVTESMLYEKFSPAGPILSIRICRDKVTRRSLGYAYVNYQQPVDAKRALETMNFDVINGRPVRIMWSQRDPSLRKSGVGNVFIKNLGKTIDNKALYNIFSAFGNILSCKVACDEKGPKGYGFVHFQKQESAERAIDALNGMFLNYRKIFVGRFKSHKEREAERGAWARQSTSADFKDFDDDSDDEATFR
| Strand | 7-mer Z-score |
| --- | --- |
| UGCCCAU | -0.418 |
| CCGACAA | 0.234 |
| UGGAGAA | 0.254 |
| CGCCGCU | -0.153 |
| GGGAGCG | 0.345 |
| UCCUCGA | -0.342 |
| CACGGAA | 0.256 |
| UCGUUAU | -0.402 |
| CGCAUUC | -0.373 |
| CAAGAAA | 1.58 |
| GAACGAG | -0.0264 |
| CAGGAAG | -0.0156 |
| ACCCAGC | -0.255 |
| CGAGAGC | -0.0047 |
| CGCUAUA | -0.117 |
| AUUGUGU | -0.354 |
| ACGGUAG | -0.0663 |
| GGAUUGC | 0.115 |
| CACUCCC | -0.264 |
| ACCUGUA | -0.269 |
| ACUUAGC | -0.135 |
| GCUAAUA | -0.0772 |

Study 3
Target: Ras GTPase-activating protein-binding protein 1, C-terminal RGG region (G3BP1, Homo sapiens, UniProt Q13283)
UniProt Q13283, sequence (whole entry, looked up): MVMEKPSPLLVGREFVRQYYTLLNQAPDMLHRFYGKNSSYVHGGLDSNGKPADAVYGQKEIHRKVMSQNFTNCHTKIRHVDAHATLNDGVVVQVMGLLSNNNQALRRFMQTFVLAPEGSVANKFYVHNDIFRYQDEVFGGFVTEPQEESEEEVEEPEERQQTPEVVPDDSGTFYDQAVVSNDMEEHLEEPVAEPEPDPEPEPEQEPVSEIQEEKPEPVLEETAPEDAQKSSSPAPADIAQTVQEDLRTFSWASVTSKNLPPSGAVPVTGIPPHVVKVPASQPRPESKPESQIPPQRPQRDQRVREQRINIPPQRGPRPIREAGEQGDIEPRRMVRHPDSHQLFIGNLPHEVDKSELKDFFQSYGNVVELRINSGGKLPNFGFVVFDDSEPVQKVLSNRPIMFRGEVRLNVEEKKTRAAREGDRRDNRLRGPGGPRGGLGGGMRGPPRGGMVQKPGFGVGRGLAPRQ
Method: RNA Bind-n-Seq
Form: RNA
Sample: in vitro
Concentration: 1 µM
Setting: whole 134-nt RNA, ends assumed
Added: 150 mM KCl
Reference: input library
Direction: higher = stronger binding
Shared flanks, not repeated: GGGAGUUCUACAGUCCGACGAUC … UGGAAUUCUCGGGUGUCAAGG
| Strand | log2 enrichment |
| --- | --- |
| ACCAUGCAGGUGGGCAUCUUUGGGAAGUGGGGCAAGCGGGGGAUAGGGAGGGGGGUAACACUUUGGGAACAGGUGGUCCCAGGUCGUUUC | -0.699 |
| UGUGCUACACAUCGUAUGUACCGAAUCGGGGAAAAAAAGGGGAAAAAAAGGGGUUUUUGGGGAAAGUAUUAUGUUACGCCGUUCGGAUCU | 0.816 |
| GUCCUGUGCUACACAUCGUAUGUACCGAAUCGGGGUGGGGAAAAAGGGGUUUUUGGGGAAAGUAUUAUGUUACGCCGUUCGGAUCUGCAC | 1.8 |
| AGUCCUGUGCUACACAUCGUAUGUACCGAAUCGGCCCCCGGGCCCCCGGGCCCCCGGAAAGUAUUAUGUUACGCCGUUCGGAUCUGCACU | -2.02 |
| CAAGUCCUGUGCUACACAUCGUAUGUACCGAAUCGGGGUUUGGUUUGGUUUGGGGAAAGUAUUAUGUUACGCCGUUCGGAUCUGCACUUC | -0.905 |
| AAGUCCUGUGCUACACAUCGUAUGUACCGAAUCGGGUUUGGGGUUUGGGGUUUGGGAAAGUAUUAUGUUACGCCGUUCGGAUCUGCACUU | 1.77 |
| UGUGCUACACAUCGUAUGUACCGAAUCGGGGUUUUUGGGGAAAAAAAGGGGUUUUUUUGGGGAAAGUAUUAUGUUACGCCGUUCGGAUCU | 1.03 |
| AGUCCUGUGCUACACAUCGUAUGUACCGAAUCGGAAAAAGGGAAAAAGGGGAAAAAGGAAAGUAUUAUGUUACGCCGUUCGGAUCUGCAC | -1.56 |
| CCUGUGCUACACAUCGUAUGUACCGAAUCGGGUUUUUUGGGUUUUUUGGGGUUUUUUGGGGAAAGUAUUAUGUUACGCCGUUCGGAUCUG | -0.999 |
| GCAGGAAGUAAAAACAAAUGGAAAUGCUUCGGAUAGUGGCAGGGGUGGGGGUUGCUAAGGAAAGAAAGGGAUGGGAGUGGGUAAAGAGUU | 2.04 |
| CUCAAGUCCUGUGCUACACAUCGUAUGUACCGAAUCGGAAGGGGAAGGGAAGGAAAGUAUUAUGUUACGCCGUUCGGAUCUGCACUUCCA | -1.06 |
| UCCAUGCAGGUGGGCAUCUUUGGGAAGUGGGGCAAGGGGGGGAUAGGGAGGGGGGUAACACUUUGGGAACAGGUGGUCCCAGGUCGUUUC | -1.1 |
| UGGGAGGUGGAUUUUGUUUAUUUUUUUAGCUCAUUUCCAGGGGUGGGAAUUUUUUUUUAAUAUGUGUCGUGAAUAAAGUUGUUUUUGAAA | 3.84 |
| CUGUGCUACACAUCGUAUGUACCGAAUCGGGGUUUUUUGGGGUUUUUUGGGGUUUUUUGGGAAAGUAUUAUGUUACGCCGUUCGGAUCUG | -0.59 |

Study 4
Target: Histone acetyltransferase KAT6A, winged helix 2, GST fusion (KAT6A, Homo sapiens, UniProt Q92794, residues 85-181)
Method: protein binding microarray
Form: double-stranded DNA, one strand shown
Sample: in vitro
Concentration: not given
Setting: 8-mer, flanks averaged, mean of 2 arrays, mostly near background
Reference: not given
Direction: higher = stronger binding
Target sequence (chain): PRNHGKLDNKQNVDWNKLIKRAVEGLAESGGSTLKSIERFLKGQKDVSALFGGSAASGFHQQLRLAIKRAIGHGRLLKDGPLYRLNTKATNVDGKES
| Strand | E-score |
| --- | --- |
| CCCAGGAG | -0.00438 |
| CCACATCG | -0.17 |
| AGCGCTAG | 0.0293 |
| GGGATCAC | -0.127 |
| GAGCGAGC | 0.208 |
| ACTAAATC | 0.0395 |
| CGACGGAC | 0.0942 |
| AGAATCGA | -0.0263 |
| CGTAGCTC | 0.0016 |
| ACGCGGCC | 0.027 |
| CCGCCTAG | 0.144 |
| AGCCGAGA | 0.0398 |
| CGGATACC | 0.0133 |
| CAGAAGCG | 0.0449 |
| GGACAGCA | 0.0997 |
| AGCCTTCC | -0.0233 |
| ATTGTGCC | -0.0539 |
| CTCCGAGC | -0.0759 |
| ACACAAAG | 0.0395 |
| CTCCGACA | 0.0149 |
| AAGAGTAA | -0.043 |
| AGCAACGC | 0.193 |
| GGCGCGAA | 0.302 |

Study 5
Target: RNA binding protein fox-1 homolog 2, RRM domain, GST-SBP tag (RBFOX2, Homo sapiens, UniProt O43251-10, residues 100-194)
Method: RNA Bind-n-Seq
Form: RNA
Sample: in vitro
Concentration: 365 nM
Setting: natural RNA segment, single round, ends assumed
Reference: no-protein control
Direction: higher = stronger binding
Shared flanks, not repeated: GGGAGUUCUACAGUCCGACGAUC … UGGAAUUCUCGGGUGCCAA
Construct (chain): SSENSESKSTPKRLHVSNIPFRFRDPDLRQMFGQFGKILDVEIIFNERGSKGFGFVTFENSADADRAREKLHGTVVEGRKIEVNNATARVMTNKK
| Strand | RBNS enrichment (R) |
| --- | --- |
| UCUUGUAGUCAGGCAGUAUAGUGUAGCAGGGCAAUCUGUCUGACACCUAAAUGGACUUGAAAUUGAAGCAGGAAGGUUGGGUUCUCCAUGGAUGGAACUCACCUGCCUGA | 0.729 |
| CCAGCUGGCCUGCUGUGAAGCCAGUAGCUAUUUUAAAAGUGCUGGCUGCAGGAUUAAGCCAACCCUUUACAACUGGCCCAGACCGUAAUGGCCAUUUCUUCUUAAAAAAA | 0.445 |
| CUGAACAAAGGACAAAGGGAAAGAAUGCGCUGCUUGAUAAAAUUAACCAAAUUCUAGCAUCUCAGAGUACAGUGAAAAGCAGCAGUGUACUCAGUGAUAAAGUUAGCCAG | 0.379 |
| CCACCUGCGUCCUCGUCAAGUGCCCGAGCUCGCCGCCGUGUGUGCUGCGCUGAGUGAGUUAUGAGGUGCCUUUCCCGGAACCCUCCUCUCGCCUGGACCCAAGAGAGGCG | 0.41 |
| AAAAACAUUUGUUCAACACAAACUAGAAUCACACCUUCUCACUAGAUAUCACCAAGGGAAUGUGGUUUUAAAAAUAAAAAGAAAACAAUAUAACGUAUCAUGGCAACCAG | 0.364 |
| ACUUGUUUGGUACUGGAGUAAAGGUGACUCUUGCUAUAUUUUAGCAAAGAGACUGGCUGCAUUUUGCCCCUGCCCUAGAGAUUUGUGGAACUUUGAACUCGAGGGAGAUG | 1.17 |
| GGCCCCACCGCCAUCGUCAGUCAAAUCAGUGCACCUCUCAAUCUGCCUCGCAGUGACUUCGCAGCACUGAGUGGCAUCCACCAGGAAUCAGGCUGGAGAAAUGGGAGCCC | 0.256 |
| GCGGCCCCCACCAGGGCACACCCUACUGUCCUUGUGCCUCACGCCCCCUCCUCAUCCUGCACCCCUUCCAUCCCACCUUCCCUUUCAAUAAACAGCUGGGAUGGAUACUG | 0.566 |
| AGUCUACUAGAGAGGUGCUGCCUUUUCUAAGUCAUAAUGAGGAACAGUCCCUUAAUUUCUUGUGUGCAACUCUGUUUUAUCCUAGAACUAAGAGAGCAUUGGUUUGUUAA | 0.379 |
| CCACCCGGAGCGCGUGCUGUUGAUGAUCUGAUCUCUCGCCUGGACCCCUCAUCCCUGCCCUGCCACUUUGCAUGAUUCAAGUUCGACCUGGCCAUGCAUUGCCCAAGCGU | 0.651 |
| AAGGGAGAGCUAGAGCCACUCACUGUCAUUCUGCUCUGACCUUGAAGGGGGCGGUGUUGGCCUGGCUUCUGGAAUGGACUGAGUCCAUCGUGGAAAGGGCUGGGGGCAGG | 0.482 |
| GUCUUCUCGUUCAGGCCUGCCUCUGACAGCACUCACCAUGAGGACAUUCCAUCCUUCACCCCCUCCUCUGGCACAGGCCACCACUGCGGUGCUGUGCCUUCAGAUGGGAG | 0.284 |
